Results collected from several papers.
Parts stem from different laboratories: compare values within a part only. Positions count from the first letter of the parent shown.

Block 1 — target: Sox, HMG box (Pigoraptor chileana); technique: Spec-seq; form: double-stranded DNA, one strand shown; medium: in vitro; concentration: not given; setting: whole probe, mean of replicates; relative to: not given; direction: lower = stronger binding; shared flanks, not repeated: GAGTCGTCTCGTCAGCAC … CCGTAGAGCACTCAGGTC
Target sequence (chain): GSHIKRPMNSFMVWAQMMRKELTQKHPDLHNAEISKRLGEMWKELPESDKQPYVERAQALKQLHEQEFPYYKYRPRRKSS
Sequence	relative binding energy [ln ratio]
CATCTTC	0.733
CATCTCT	0.607
AAGCGTT	-1.11
CATACAC	-0.0317
CATACCC	0.52
CATGCGC	0.654
CATTACA	-0.103
GAGCGTT	1.25

Block 2 — technique: RNA Bind-n-Seq; form: RNA; medium: in vitro; concentration: 1 µM; setting: whole 134-nt RNA, ends assumed; together with: 150 mM KCl; relative to: input library; direction: higher = stronger binding
Target: Ras GTPase-activating protein-binding protein 1, RRM domain (G3BP1, Homo sapiens, UniProt Q13283)
Sequence of UniProt Q13283 (whole entry, looked up): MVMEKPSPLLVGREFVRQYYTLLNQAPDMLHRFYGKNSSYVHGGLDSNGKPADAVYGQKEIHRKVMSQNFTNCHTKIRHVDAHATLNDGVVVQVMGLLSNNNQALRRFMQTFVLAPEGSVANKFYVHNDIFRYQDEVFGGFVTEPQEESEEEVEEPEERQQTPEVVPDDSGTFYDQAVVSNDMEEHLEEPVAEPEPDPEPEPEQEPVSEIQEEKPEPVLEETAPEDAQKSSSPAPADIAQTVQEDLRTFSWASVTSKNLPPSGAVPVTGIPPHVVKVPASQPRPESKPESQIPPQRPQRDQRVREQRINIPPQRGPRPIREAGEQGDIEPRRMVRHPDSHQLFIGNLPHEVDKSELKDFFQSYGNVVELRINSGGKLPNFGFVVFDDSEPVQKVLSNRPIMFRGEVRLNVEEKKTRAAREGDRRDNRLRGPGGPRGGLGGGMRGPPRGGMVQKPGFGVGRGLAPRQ
Shared flanks, not repeated: GGGAGUUCUACAGUCCGACGAUC … UGGAAUUCUCGGGUGUCAAGG
Sequence	log2 enrichment
CCUCAAGUCCUGUGCUACACAUCGUAUGUACCGAAUCGGUUGGUUGGGGUUGGAAAGUAUUAUGUUACGCCGUUCGGAUCUGCACUUCCA	-0.253
CCUCAAGUCCUGUGCUACACAUCGUAUGUACCGAAUCGGGGCGGCGGGCGGGAAAGUAUUAUGUUACGCCGUUCGGAUCUGCACUUCCAG	-0.0511
AAGUCCUGUGCUACACAUCGUAUGUACCGAAUCGGAAAGGUUUUUUUGGUUUUUGGAAAGUAUUAUGUUACGCCGUUCGGAUCUGCACUU	-0.469
GUCCUGUGCUACACAUCGUAUGUACCGAAUCGGGGUUUUGGGGUUUUGGGGUUUUGGGAAAGUAUUAUGUUACGCCGUUCGGAUCUGCAC	0.266
AGUCCUGUGCUACACAUCGUAUGUACCGAAUCAAACCCAAAUUUAAACCCCCCCAAAAAAGUAUUAUGUUACGCCGUUCGGAUCUGCACU	-0.117
UGGGAGGUGGAUUUUGUUUAUUUUUUUAGCUCAUUUCCAGGGGUGGGAAUUUUUUUUUAAUAUGUGUCAUGAAUAGAGUUGUUUUUGAAA	0.887
CAAGUCCUGUGCUACACAUCGUAUGUACCGAAUCGGGGAAAGGGGUGGGGUGGGGAAAGUAUUAUGUUACGCCGUUCGGAUCUGCACUUC	1.09
CCUGUGCUACACAUCGUAUGUACCGAAUCGGGGUUUUUUGGGUUUUUUGGGUUUUUUGGGAAAGUAUUAUGUUACGCCGUUCGGAUCUGC	-0.236

Further values, each from its own experiment
P1: viral docking peptide; KGVKRKLFAEDSS; partner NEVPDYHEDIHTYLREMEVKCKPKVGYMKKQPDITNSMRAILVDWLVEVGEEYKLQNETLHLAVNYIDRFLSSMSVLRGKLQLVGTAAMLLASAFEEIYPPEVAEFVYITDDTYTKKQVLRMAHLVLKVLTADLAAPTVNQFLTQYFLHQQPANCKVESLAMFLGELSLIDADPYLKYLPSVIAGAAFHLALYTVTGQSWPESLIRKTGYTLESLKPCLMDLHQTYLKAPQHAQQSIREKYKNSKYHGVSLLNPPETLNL
Substance	tested on	assay	system	conditions	how to read	measurement	result
PFKM (Homo sapiens, UniProt P08237)	FLOT2 (Homo sapiens, UniProt Q14254)	cross-linking MS	cell fractions	together with: DSSO	–	cross-linked residues	K692 to S224
P1 K6A	CCNA2, cyclin fold, Cln2 fusion (human)	yeast growth competition, sequencing	yeast	strong parent motif	relative to: not given, higher = stronger binding	normalised enrichment score	6.05
PRPF4 (Homo sapiens, UniProt O43172)	PRPF6 (Homo sapiens, UniProt O94906)	cross-linking MS	–	hits only	–	interaction screen	cross-linked
PSMD12 (Homo sapiens, UniProt O00232)	PSMD10 (Homo sapiens, UniProt O75832)	cross-linking MS	cell fractions	together with: DSSO	–	cross-linked residues	K52 to K30
LMNB1 (Homo sapiens, UniProt P20700)	TMPO (Homo sapiens, UniProt P42167)	cross-linking MS	–	hits only	–	interaction screen	cross-linked

Repeated from above (block 2):
Sequence	log2 enrichment
GUCCUGUGCUACACAUCGUAUGUACCGAAUCGGGGUUUUGGGGUUUUGGGGUUUUGGGAAAGUAUUAUGUUACGCCGUUCGGAUCUGCAC	0.266
AGUCCUGUGCUACACAUCGUAUGUACCGAAUCAAACCCAAAUUUAAACCCCCCCAAAAAAGUAUUAUGUUACGCCGUUCGGAUCUGCACU	-0.117
